Results of several laboratories.
Lines come from different studies, so protocols differ. ± gives the spread as reported.
Organism: Trypanosoma cruzi

For `O=C(Cn1ccnc1[N+](=O)[O-])NCc1ccccc1`, the IC50 was 2.5 ± 1.4 µM (growth; cardiomyocytes, Y, amastigote; 72 h, with: heme 30 µM).
With `O=[N+]([O-])c1ccc(/C=N/N=C/c2ccc([N+](=O)[O-])o2)cc1` the IC50 was < 1 µM (parasite growth, resazurin; trypomastigote).
`Cc1cc(NCCCn2ccnc2[N+](=O)[O-])nc(N)n1` gave an IC50 of 4 to 60 µM (growth; L6 myoblasts, Tulahuen C4; intracellular amastigotes).
For `COc1ccc(C[C@H](N)C(=O)N[C@H]2[C@@H](O)[C@H](n3cnc4c(N(C)C)ncnc43)O[C@@H]2CO)cc1`, the IC50 was 1.58 ± 1.44 µM (intracellular amastigote growth; 3T3 fibroblasts, Tulahuen; 48 h, re-sourced solid sample).
With `O=[N+]([O-])c1nccn1CCCN(Cc1ccc2cc(Br)ccc2n1)Cc1ccc2cc(Br)ccc2n1` the IC50 was 4 to 60 µM (growth; L6 myoblasts, Tulahuen C4; intracellular amastigotes).
`N#CSCCOc1ccc(Oc2cccc([N+](=O)[O-])c2)cc1` has an IC50 of 5.2 µM (parasite growth; Vero; 72 h, intracellular, amastigote).
`O=C(NC(c1ccccc1)c1ccc2cccnc2c1O)c1ccccc1` (centres unmarked) has an IC50 of 0.69 ± 0.79 µM (imaging; 3T3 fibroblasts, Tulahuen amastigote; 48 h, stored DMSO sample).
`Cc1cc(O)c2c(c1)C(=O)c1cc(O)cc(O)c1C2=O` has an IC50 of 0.7 µM (parasite release from CHO cells; serum-free host culture).
With `CC[C@@H]([C@H](C)O)n1ncn(-c2ccc(N3CCN(c4ccc(OC[C@@H]5CO[C@@](Cn6cncn6)(c6ccc(F)cc6F)C5)cc4)CC3)cc2)c1=O` the IC50 was 5.43 µM (parasite growth, resazurin; 48 h, epimastigote).
`O=[N+]([O-])c1nccn1CCCNCc1ccc2cc(Br)ccc2n1` gave an IC50 of 4 to 60 µM (growth; L6 myoblasts, Tulahuen C4; intracellular amastigotes).
`COc1ccccc1N1CCN(C(CNS(=O)(=O)c2ccc(Cl)cc2)c2cccnc2)CC1` (centres unmarked) has an IC50 of 1.73 ± 0.19 µM (imaging; 3T3 fibroblasts, Tulahuen amastigote; 48 h).
`O=C(c1ccc(Cl)cc1)N1CCN(Cc2ccccc2)CC1` gave an IC50 of > 60 µM (parasite growth; mouse Peritoneal macrophage; 48 h, intracellular, amastigote).
`N#CSCCOc1ccc(Oc2ccccc2)cc1` has an IC50 of 5 µM (parasite growth; Vero; 72 h, intracellular, amastigote).
For `O=[N+]([O-])c1ccc(/C=N/N=C/c2ccccc2)o1`, the IC50 was < 2.5 µM (parasite growth, resazurin; trypomastigote).
`COc1ccc(C(=O)N2CCC(Cc3ccccc3)CC2)cc1` has an IC50 of > 60 µM (parasite growth; mouse Peritoneal macrophage; 48 h, intracellular, amastigote).
For `Cc1cc(NCCCCn2ccnc2[N+](=O)[O-])nc(N)n1`, the IC50 was 4 to 60 µM (growth; L6 myoblasts, Tulahuen C4; intracellular amastigotes).
The IC50 of `COc1cc(/C=C/C(=O)N2CCN(Cc3ccccc3)CC2)ccc1O` is reported as > 60 µM (parasite growth; mouse Peritoneal macrophage; 48 h, intracellular, amastigote).
`Cc1cc(C2CCCCC2)n(O)c(=O)c1` gave an IC50 of 1 ± 0.49 µM (PrestoBlue; trypomastigote; 48 h, solid sample retest).
`O=[N+]([O-])c1nccn1CCCNCc1cc(C(F)(F)F)cc(C(F)(F)F)c1` has an IC50 of 4 to 60 µM (growth; L6 myoblasts, Tulahuen C4; intracellular amastigotes).
With `O=C(Nc1nc(-c2ccccn2)cs1)c1ccccc1Br` the IC50 was 1.29 ± 0.13 µM (imaging; 3T3 fibroblasts, Tulahuen amastigote; 48 h).
`O=[N+]([O-])c1cccc(Oc2ccc(OCCOC3CCCCO3)cc2)c1` (centres unmarked) has an IC50 of > 10 µM (parasite growth; Vero; 72 h, intracellular, amastigote).
`O=C(Cn1ccnc1[N+](=O)[O-])NCc1ccccc1` gave an IC50 of 5 µM (parasite growth; mouse Peritoneal macrophage; 48 h, intracellular, amastigote).
`COc1ccc(C)c2sc(N(Cc3cccnc3)C(=O)c3ccc(C#N)cc3)nc12` gave an IC50 of 1.34 ± 0.00884 µM (imaging; 3T3 fibroblasts, Tulahuen amastigote; 48 h, stored DMSO sample).

Excerpt of the above:
The IC50 of `COc1cc(/C=C/C(=O)N2CCN(Cc3ccccc3)CC2)ccc1O` is reported as > 60 µM (parasite growth; mouse Peritoneal macrophage; 48 h, intracellular, amastigote).
`Cc1cc(C2CCCCC2)n(O)c(=O)c1` gave an IC50 of 1 ± 0.49 µM (PrestoBlue; trypomastigote; 48 h, solid sample retest).
